Results collected from several papers.

Compound = c1ccc(-c2nc(N3CCN(c4ccccn4)CC3)c3ccccc3n2)nc1; sample = Japanese Pharmacopoeia disintegration test solution 2; pH = pH 6.8; kinetic solubility = 70 µg/mL
Compound = COc1cc2[nH]c(C)c(-c3ccc(N(C)C)cc3)c(=O)c2cc1Cl; pH = pH 7.4; kinetic solubility = 2 to 6 µM
Compound = O=C(Nc1cnc(Cl)c(Cl)c1)c1cc([N+](=O)[O-])c(F)cc1F; sample = phosphate buffer; pH = pH 7.4; kinetic solubility = < 0.3 µM
Compound = c1ccc(-c2nc(NCc3nccs3)c3ccccc3n2)nc1; sample = Japanese Pharmacopoeia disintegration test solution 2; pH = pH 6.8; kinetic solubility = 71 µg/mL
Compound = CCCCC/C=C\C/C=C\CCCCCCCC(=O)O.Cc1cc(/C=C/C#N)cc(C)c1Nc1ccnc(Nc2ccc(C#N)cc2)n1; sample = Capryol 90; kinetic solubility = ~50000 µg/mL
Compound = COc1cc2[nH]c(C)c(-c3ccc(OCc4ccccc4)cc3)c(=O)c2cc1Cl; pH = pH 7.4; kinetic solubility = < 2 µM
Compound = c1ccc(-c2nc(NCCn3cnc4ccccc43)c3ccccc3n2)nc1; sample = Japanese Pharmacopoeia disintegration test solution 2; pH = pH 6.8; kinetic solubility = 89 µg/mL
Compound = COc1cc2[nH]c(C)c(-c3cccnc3)c(=O)c2cc1Cl; pH = pH 7.4; kinetic solubility = ≥ 20 µM
Compound = Cc1cc(Cl)c(Cl)cc1NC(=O)c1cc([N+](=O)[O-])c(F)cc1Cl; sample = phosphate buffer; pH = pH 7.4; kinetic solubility = < 1.6 µM

A few entries again:
Compound = Cc1cc(Cl)c(Cl)cc1NC(=O)c1cc([N+](=O)[O-])c(F)cc1Cl; sample = phosphate buffer; pH = pH 7.4; kinetic solubility = < 1.6 µM
